Published values from different studies.
Numbered parts are unrelated; each lists some results of a single study. Several values in a cell are separate wells, animals, samples, runs or records.
UniProt P42336, sequence (whole entry, unmodified, looked up): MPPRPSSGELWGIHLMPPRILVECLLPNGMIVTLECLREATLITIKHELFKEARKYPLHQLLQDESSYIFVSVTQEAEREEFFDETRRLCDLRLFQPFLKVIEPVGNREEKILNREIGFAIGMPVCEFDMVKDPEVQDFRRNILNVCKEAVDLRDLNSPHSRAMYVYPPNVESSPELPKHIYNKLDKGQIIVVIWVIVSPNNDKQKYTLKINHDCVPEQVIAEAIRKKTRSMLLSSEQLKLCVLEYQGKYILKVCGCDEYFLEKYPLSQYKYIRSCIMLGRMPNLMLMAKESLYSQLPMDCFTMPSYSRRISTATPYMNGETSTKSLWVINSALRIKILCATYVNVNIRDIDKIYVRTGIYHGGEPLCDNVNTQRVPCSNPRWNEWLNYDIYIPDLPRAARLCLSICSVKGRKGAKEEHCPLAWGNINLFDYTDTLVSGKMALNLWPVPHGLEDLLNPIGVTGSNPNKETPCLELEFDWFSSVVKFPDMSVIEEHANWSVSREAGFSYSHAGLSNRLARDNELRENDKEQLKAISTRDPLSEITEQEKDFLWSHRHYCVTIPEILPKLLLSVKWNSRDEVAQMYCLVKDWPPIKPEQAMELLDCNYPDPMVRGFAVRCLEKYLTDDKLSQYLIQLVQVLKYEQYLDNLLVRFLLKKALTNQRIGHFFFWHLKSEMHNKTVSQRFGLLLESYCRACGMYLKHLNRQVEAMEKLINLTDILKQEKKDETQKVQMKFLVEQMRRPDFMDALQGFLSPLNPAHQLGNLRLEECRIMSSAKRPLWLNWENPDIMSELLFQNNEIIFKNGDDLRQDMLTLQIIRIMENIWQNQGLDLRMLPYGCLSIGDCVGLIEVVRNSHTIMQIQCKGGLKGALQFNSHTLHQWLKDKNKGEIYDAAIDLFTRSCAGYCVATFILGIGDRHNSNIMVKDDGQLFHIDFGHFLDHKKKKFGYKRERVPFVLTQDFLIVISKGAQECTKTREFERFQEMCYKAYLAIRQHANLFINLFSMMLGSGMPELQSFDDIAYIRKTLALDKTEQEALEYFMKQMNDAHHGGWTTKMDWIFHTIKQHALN
UniProt Q99640, sequence (whole entry, looked up): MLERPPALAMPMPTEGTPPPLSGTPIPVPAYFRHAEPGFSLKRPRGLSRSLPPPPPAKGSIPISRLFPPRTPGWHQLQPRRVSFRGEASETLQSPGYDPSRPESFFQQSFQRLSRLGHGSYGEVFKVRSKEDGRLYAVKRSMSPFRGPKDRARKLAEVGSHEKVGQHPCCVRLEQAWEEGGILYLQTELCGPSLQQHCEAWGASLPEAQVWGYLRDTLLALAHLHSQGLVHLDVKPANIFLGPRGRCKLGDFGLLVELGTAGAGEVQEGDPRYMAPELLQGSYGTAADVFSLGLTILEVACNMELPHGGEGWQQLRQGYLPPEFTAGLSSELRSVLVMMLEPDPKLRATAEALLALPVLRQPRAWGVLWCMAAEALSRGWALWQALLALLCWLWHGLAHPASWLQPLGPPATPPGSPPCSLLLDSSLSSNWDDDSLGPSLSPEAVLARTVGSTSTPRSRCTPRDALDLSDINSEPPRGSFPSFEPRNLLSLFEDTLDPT

Series 1
Cell line: mouse MPNST tumor cells
Technique: high-content immunofluorescence imaging
Refers to: nuclear SOX9
Tested at: 10 µM
Time: 12 h
Notes: mean of 2 replicates
Relative to: DMSO control
Direction: higher = more nuclear SOX9
Endpoint: nuclear SOX9 intensity
CCOC(=O)c1csc(Nc2ccc(Cl)cc2)n1: 103 % of DMSO
COc1cccc(OC)c1C(=O)N[C@@H]1C(=O)N2[C@@H]1SC(C)(C)[C@@H]2C(=O)O: 97.4 % of DMSO
CCCC(=O)Nc1ncnc2c1ncn2[C@@H]1O[C@@H]2COP(=O)(O)O[C@H]2[C@H]1OC(=O)CCC: 115 % of DMSO and 96 % of DMSO
CCC(=O)O[C@@H](O[P@](=O)(CCCCc1ccccc1)CC(=O)N1C[C@H](C2CCCCC2)C[C@H]1C(=O)O)C(C)C: 89.3 % of DMSO

Series 2
Target: Serine/threonine-protein kinase pim-3 (PIM3, Homo sapiens, UniProt Q86V86)
Effect on: enzyme activity
Action: inhibitor
Tested at: 0.5 µM
Relative to: control
Endpoint: remaining activity
O=C1NC(=O)C(c2cn(CCCn3ccnc3)c3ccccc23)=C1Nc1ccccc1: 97.5%
Cc1ccc(NC(=O)c2ccc(CN3CCN(C)CC3)cc2)cc1Nc1nc(-c2cccnc2)cs1: 73.7%
O=C1NC(=O)C(c2cn(CCCO)c3ncccc23)=C1c1cnccn1: 16.7%
O=S(=O)(c1cccc2cnccc12)N1CCCNCC1: 91.4%
COc1ccc(C(=O)Nc2sc3c(c2C(N)=O)CCCC3)cc1OC: 109%
Cn1sc(=O)n(Cc2ccccc2)c1=O: 120%
Nc1ncnc2n[nH]c(Nc3ccc(F)cc3)c12: 95%
OCC(O)CCON=C1C(c2c(O)[nH]c3ccccc23)=Nc2ccccc21 (stereo not drawn): 58.5%
O=c1c2ccccc2[nH]c(=S)n1CCN1CCC(=C(c2ccc(F)cc2)c2ccc(F)cc2)CC1: 108%
O=C(Nc1cccc(Nc2cc(Nc3cccc(C(F)(F)F)c3)ncn2)c1)C1CC1: 133%
Cc1nc(-c2ccccc2)c(-c2ccncc2)o1: 106%
O=C(CCCc1ccc(-c2ccccc2F)cc1)Nc1ccc(O)cc1: 104%
C#Cc1cccc(Nc2ncnc3cc(OCCOC)c(OCCOC)cc23)c1: 81.4%
COc1cc2nccc(Oc3ccc(NC(=S)NC(=O)c4ccccc4C)cc3)c2cc1OC: 98.2%
COc1cc2ncnc(Nc3ccc(F)c(Cl)c3)c2cc1OCCCN1CCOCC1: 74.6%
CCOC(=O)c1c(C)[nH]c(/C=C2\C(=O)Nc3ccccc32)c1C: 75.1%

Series 3
Structure (SMILES): COc1cccc(CNC(=O)c2nc3scc(COCc4ccc(C(=O)O)cc4)c3c(=O)[nH]2)c1
Effect on: cell-free assay
Technique: competition with immobilised ligand
Tested at: 1 µM
Endpoint: remaining binding
cAMP-dependent protein kinase catalytic subunit alpha (PRKACA, Homo sapiens, UniProt P17612): 100%
Membrane-associated tyrosine- and threonine-specific cdc2-inhibitory kinase (PKMYT1, Homo sapiens, UniProt Q99640): 88%
Phosphatidylinositol 4,5-bisphosphate 3-kinase catalytic subunit alpha isoform (PIK3CA, Homo sapiens, UniProt P42336, E545K): 86.3%

Series 4
Target: Protein C-ets-1, full length (ETS1, Homo sapiens, UniProt P14921, residues 1-441)
Technique: protein-binding microarray
Form: hairpin DNA
Sample: in vitro
Tested at: not given
Notes: whole hairpin DNA, median over replicate spots
Relative to: not given
Direction: higher = stronger binding
Endpoint: median fluorescence
Target sequence (chain): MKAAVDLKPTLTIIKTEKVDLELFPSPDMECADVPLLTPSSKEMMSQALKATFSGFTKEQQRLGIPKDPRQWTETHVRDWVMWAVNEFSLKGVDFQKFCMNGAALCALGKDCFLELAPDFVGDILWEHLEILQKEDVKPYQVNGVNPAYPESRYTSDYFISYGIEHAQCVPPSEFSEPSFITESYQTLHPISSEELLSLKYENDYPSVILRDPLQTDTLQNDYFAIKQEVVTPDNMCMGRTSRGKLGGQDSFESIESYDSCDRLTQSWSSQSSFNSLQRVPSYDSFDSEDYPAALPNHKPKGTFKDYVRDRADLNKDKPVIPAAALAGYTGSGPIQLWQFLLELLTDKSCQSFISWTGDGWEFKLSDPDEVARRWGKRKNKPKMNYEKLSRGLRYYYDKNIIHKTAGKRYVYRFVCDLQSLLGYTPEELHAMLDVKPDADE
GAGGCCCGTCGGAAGTTGCCTCCTGGCAACTTCCGACGGGCCTCACACTC (5mC at 7 37): 2680 a.u.
GAGGCCAGTCGCGAGTTGCCTCCTGGCAACTCGCGACTGGCCTCACACTC: 551 a.u.
GAGGCCAGCCGGAAGTAGCCTCCTGGCTACTTCCGGCTGGCCTCACACTC: 9150 a.u.
GAGGCCAGTCGGAAGCTGCCTCCTGGCAGCTTCCGACTGGCCTCACACTC: 1760 a.u.
GAGGCCAGTCGGAACTTGCCTCCTGGCAAGTTCCGACTGGCCTCACACTC: 829 a.u.
GAGGCCAGTCGGATGTTGCCTCCTGGCAACATCCGACTGGCCTCACACTC: 2300 a.u.
GAGGCCAGTCGGAAGTGGCCTCCTGGCCACTTCCGACTGGCCTCACACTC: 3320 a.u.
GAGGCCAGGCGGAAGTTGCCTCCTGGCAACTTCCGCCTGGCCTCACACTC: 6920 a.u.

Series 5
Species: human
Sample: microsomes or S9
Tested at: 2 µM
Time: 0.5 h
Endpoint: remaining compound
Cc1c(C)c(C)c(CNC(=O)C2CNC(=O)C2)c(C)c1C (stereo not drawn): 79.3%
O=C(Cc1c[nH]c2ccccc12)N1CCc2cc(-c3ccno3)ccc21: 60.9%
CCOC(=O)C(Cc1ccccc1)(NC(C)=O)C(=O)OCC: > 99%
CCN(CC)c1ccc(/C=N/n2c(C)nnc2C)cc1: 59.2%

Series 6
Cell line: HaCaT
Tested at: 100 µM
Time: 36 h
Endpoint: viability
Nc1nc(Cl)nc2c1ncn2[C@@H]1O[C@H](CO)[C@@H](O)[C@@H]1F: 45.8%
CC[C@H]1OC(=O)[C@H](C)[C@@H](O[C@H]2C[C@@](C)(OC)[C@@H](O)[C@H](C)O2)[C@H](C)[C@@H](O[C@@H]2O[C@H](C)C[C@H](N(C)C)[C@H]2O)[C@](C)(O)C[C@@H](C)CN(C)[C@H](C)[C@@H](O)[C@]1(C)O: 75.7%
NC(=O)c1ncn([C@@H]2O[C@H](CO)[C@@H](O)[C@H]2O)c1O: 92.7%

Mixed results
CC(C)n1cnc(-c2ccc(F)cc2)c1-c1ncc(C(=O)Nc2ccc(N3CCN(C)CC3)cc2)[nH]1 — patients with adverse events (Phase 2a trial, refers to: eye disorders (SOC); idiopathic pulmonary fibrosis patients; 30 mg once daily, grade 3 maximum intensity): 0%

For quick reference, copied from above (series 3):
cAMP-dependent protein kinase catalytic subunit alpha (PRKACA, Homo sapiens, UniProt P17612): 100%
Membrane-associated tyrosine- and threonine-specific cdc2-inhibitory kinase (PKMYT1, Homo sapiens, UniProt Q99640): 88%
Phosphatidylinositol 4,5-bisphosphate 3-kinase catalytic subunit alpha isoform (PIK3CA, Homo sapiens, UniProt P42336, E545K): 86.3%
